# Experimental data of several laboratories.
# Lines come from different studies, so protocols differ. Values joined by “and” are separate records of one study, mostly repeats; a detail may differ. Numbers after ± are the reported error.
SMILES,target or system,test,system,conditions,how to read,measurement,result
O=C(C=Cc1ccc(O)c(O)c1)OC1CC(O)(C(=O)O)CC(OC(=O)C=Cc2ccc(O)c(O)c2)C1O (stereo not drawn),Vero E6,,,25 µM,,cytotoxicity,0%
COc1ccc2c3c1O[C@H]1[C@H](O)C=C[C@@]4(O)[C@@H](C2)N(C)CC[C@]314,,pH-potentiometric titration,,,relative to: O-methyl derivative,"Δlog K, 14-hydroxylation effect",0.76 log units
CC[C@H](C)[C@H](NC(=O)[C@H](CCCCN)NC(=O)[C@H](CCCCN)NC(=O)[C@H](Cc1ccccc1)NC(=O)[C@H](Cc1ccccc1)NC(=O)[C@H](CCCCN)NC(=O)[C@H](CCCCN)NC(=O)[C@H](Cc1ccccc1)NC(=O)[C@H](CCCNC(=N)N)NC(=O)[C@@H](N)CCCCN)C(=O)N[C@@H](CCCCN)C(=O)N[C@@H](CCCCN)C(=O)N[C@@H](CO)C(=O)N[C@H](C(=O)N[C@@H](CCCCN)C(=O)N[C@@H](CCCCN)C(=O)N[C@@H](CCCNC(=N)N)C(=O)N[C@H](C(=O)N[C@@H](CCCCN)C(=O)N[C@@H](CCCCN)C(=O)N[C@@H](CC(C)C)C(=O)N[C@@H](Cc1ccccc1)C(=O)N[C@@H](CCCCN)C(=O)N[C@@H](CCCCN)C(=O)N1CCC[C@H]1C(=O)N[C@@H](CCCNC(=N)N)C(=O)N[C@H](C(=O)N[C@H](C(=O)N1CCC[C@H]1C(=O)N[C@H](C(=O)N[C@@H](CO)C(=O)N[C@H](C(=O)N1CCC[C@H]1C(=O)N[C@@H](Cc1ccccc1)C(=O)O)[C@@H](C)CC)[C@@H](C)CC)[C@@H](C)CC)C(C)C)C(C)C)C(C)C,Escherichia coli,MIC after serum incubation,E24,"2 h, 37 °C, together with: 25% mouse serum",,MIC,16 µg/mL
Cc1ccc(OCCN(C)C)cc1C(=O)N[C@H](C)c1cc(-c2scnc2C)nc2ccccc12,Vero E6,,,31.25 µM,,viability,65.2% and 74.4%
CC(=O)NCCCC[C@@H]1NC(=O)[C@H](Cc2c[nH]c3c(C)cccc23)NC(=O)[C@H]([C@@H](C)O)NC(=O)[C@H](CC(N)=O)NC(=O)[C@@H](NC(C)=O)C(C)(C)SSC(C)(C)[C@@H](C(=O)N[C@@H](Cc2ccc(OCCN)cc2)C(=O)N[C@@H](Cc2ccc3ccccc3c2)C(=O)NC2(C(=O)N[C@@H](CCC(=O)O)C(=O)N[C@@H](CC(N)=O)C(=O)N[C@@H](Cc3cccnc3)C(=O)N(C)CC(N)=O)CCOCC2)NC1=O,"Albumin (ALB, Homo sapiens, UniProt P02768)",equilibrium dialysis,purified human albumin,0.1 µM,,protein binding,25.7 ± 4.3 % bound
CC[C@H](C)[C@H](NC(=O)[C@H](CCCCN)NC(=O)CNC(=O)[C@H](CC(C)C)NC(=O)[C@H](Cc1ccccc1)NC(=O)[C@H](CCCCN)NC(=O)[C@H](CO)NC(=O)[C@H](Cc1ccccc1)NC(=O)[C@H](Cc1c[nH]c2ccccc12)NC(=O)[C@H](CCC(N)=O)NC(=O)[C@@H](NC(=O)[C@H](Cc1ccccc1)NC(=O)CCCCCNC(=O)CN1CCN(CC(=O)O)CCN(CC(=O)O)CCN(CC(=O)O)CC1)C(C)C)C(=O)N[C@@H](CCC(=O)O)C(=O)N1CCC[C@H]1C(=O)N[C@H](CC(=O)O)C(=O)N[C@H](C(=O)N[C@@H](CO)C(=O)N[C@@H](CCC(N)=O)C(=O)N[C@H](C(=O)N[C@@H](CCC(N)=O)C(=O)N[C@@H](CC(=O)O)C(=O)N1CCC[C@H]1C(=O)N[C@@H](CC(N)=O)C(=O)N[C@@H](CC(=O)O)C(=O)N[C@@H](CCC(N)=O)C(=O)N[C@@H](Cc1ccc(O)cc1)C(=O)N[C@@H](CCC(=O)O)C(=O)N1CCC[C@H]1C(=O)N[C@@H](Cc1ccccc1)C(=O)O)C(C)C)C(C)C [copper-64 labelled],,,"female mice, EMT6 tumour-bearing, kidneys","2 h, uncleavable control tracer, checkpoint inhibitor-treated",,tissue uptake,41.7 ± 5.17 %ID/g
CCn1ccc(-c2cc([C@@H](C)NC(=O)c3cc(OC[C@H]4CCCN4C)ccc3C)c3ccccc3n2)n1,Vero E6,,,15.62 µM,,viability,88.1% and 93.4% and 101%
Cc1nc2cccc(OCC(C)(C)C(=O)NC(C)C)c2c(N)c1C(=O)[O-].[Na+],Salmonella typhimurium,Ames preincubation,TA98,"0.13 mg/plate, together with: with rat liver S9",,revertant colonies,46 ± 2 colonies/plate
Cc1ccc(OC2CN(C)C2)cc1C(=O)N[C@H](C)c1cc(-c2cnn(C)c2)nc2ccccc12,Vero E6,,,500 µM,,viability,0.495% and 0.33% and 0.165%
O=C1NC2(CC2)COc2ncc(F)cc2[C@H]2COCCN2c2ccn3ncc1c3n2,,,"Sprague-Dawley rat, male, serum","oral, 10 mg/kg/day, 4 weeks daily, end of recovery period",,glucose,8.46 ± 0.96 mmol/L
CCn1ccc(-c2cc([C@@H](C)NC(=O)c3cc(OC[C@@H]4CCN4C)ccc3C)c3ccccc3n2)n1,Vero E6,,,125 µM,,viability,2.54% and -0.149%
COc1cc2c(cc1NC(=O)c1cncn1C)C[C@H]1[C@H]3CCCC[C@@]23CCN1C,,,"C57BL/6 mice, plasma","oral, 50 µg/g, 300 min",,plasma concentration,1050 ng/mL and 955 ng/mL and 916 ng/mL and 1510 ng/mL

# Repeated from above:
SMILES,target or system,test,system,conditions,how to read,measurement,result
Cc1nc2cccc(OCC(C)(C)C(=O)NC(C)C)c2c(N)c1C(=O)[O-].[Na+],Salmonella typhimurium,Ames preincubation,TA98,"0.13 mg/plate, together with: with rat liver S9",,revertant colonies,46 ± 2 colonies/plate
